Experimental data pooled from the literature.
Numbered parts are unrelated; each lists some results of a single study. Substitutions count along the parent as printed.

Study 1
Target: Histone acetyltransferase KAT6A, both winged helices, GST fusion (KAT6A, Homo sapiens, UniProt Q92794, residues 1-181)
Method: protein binding microarray
Molecule type: double-stranded DNA, one strand shown
Medium: in vitro
Tested at: not given
Setting: 8-mer, flanks averaged, mean of 2 arrays, mostly near background
Reference: not given
Direction: higher = stronger binding
Target sequence (chain): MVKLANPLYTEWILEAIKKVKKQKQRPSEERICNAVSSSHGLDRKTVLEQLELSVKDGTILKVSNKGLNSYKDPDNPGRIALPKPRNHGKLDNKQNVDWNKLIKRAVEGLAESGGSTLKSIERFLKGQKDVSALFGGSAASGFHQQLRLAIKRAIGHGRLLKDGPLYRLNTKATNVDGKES
Sequence | E-score
GCCCTCGC | 0.17
CGACGTGC | 0.0592
ATATTGCG | 0.16
CTATGCGC | 0.262
ATCAAGAA | -0.146
CCCGGCTA | 0.173
CGTAAGGA | -0.0927
GGGGTGCA | -0.0191
ACTAACCA | -0.114
ACAAAGAC | -0.0838
CCATTTTC | -0.0979
ATCGGCGC | 0.3
ACTAGAGG | -0.141
AGAGATCT | -0.168
CCAAGACC | -0.147
AGAGCCAA | -0.116
AGAGATGG | -0.229
GCACACTA | -0.107
AGGACGCG | 0.223
AGGGAGGG | -0.209
AAGGTCCA | -0.137
CTACTCAC | -0.134
AATGGCCA | -0.191
GTCCATTA | -0.0746
AATATGGC | -0.00745

Study 2
Target: CCND2, cyclin fold, Cln2 fusion (human)
Method: yeast growth competition, sequencing
Medium: yeast
Setting: strong parent motif
Reference: not given
Direction: higher = stronger binding
Starting sequence: E2F1 docking peptide (human); PPVKRRLDFETDH
Substitution | normalised enrichment score
D12R | 1.56
E10S | 2.1
R5H | -0.279
R5L | 0.206
L7P | 0.209
L7F | 0.237
R5G | 0.281
T11I | 2.06
V3H | 0.743
K4P | 0.34
R5V | 0.739
P2L | 1
D8Y | 1.2
D12M | 1.86
V3L | 0.507
V3C | 1.45
P2N | 1.51
L7Q | 0.103
F9T | 0.271
P2H | 1.13
V3W | 0.391
T11P | 1.31
V3F | -0.161
E10M | 1.32
D8A | 1.47

Study 3
Target: RNA binding protein fox-1 homolog 2, RRM domain, GST-SBP tag (RBFOX2, Homo sapiens, UniProt O43251-10, residues 100-194)
Method: RNA Bind-n-Seq
Molecule type: RNA
Medium: in vitro
Tested at: 365 nM
Setting: natural RNA segment, single round, ends assumed
Reference: no-protein control
Direction: higher = stronger binding
Constant ends, left off below: GGGAGUUCUACAGUCCGACGAUC … UGGAAUUCUCGGGUGCCAA
Construct (chain): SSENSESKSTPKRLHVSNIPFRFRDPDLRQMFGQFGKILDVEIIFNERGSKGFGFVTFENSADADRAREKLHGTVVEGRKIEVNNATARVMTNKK
Sequence | RBNS enrichment (R)
CAAUGAAGGAAAUAAAAAAGUCUCUAUUUAAAUUCUUUUUUAAAUUUUCUUCAGUUGGUGUGUUUUUGGGAUGUCUUAUUUUUAGAUGGUUACACUGUUAGAACACUAUU | 0.458
AUAUAGGAUCAGCUCCUUGACCUCUGAGGGGCAGGAGUGCUUCCUGGUGUGUGUAUUAGAAUCCCUUCCUGCCUUGUUUCAUGGCAGUGAAAUGCCUCUUGGUCCUGUCC | 0.977
UAGGGUUUUUUGUCCAGUGGGUUUCAAAUUUGUUGGCUGUUUAAAGACCCUGUCUCCUCCCCCACCCUCCCCUUCCUUUUCCCAUCAAAUGCCUACCUACUGAGGCGCCU | 0.765
UUGGGGCGUGGUGAGUUGGAAUGAUACGUCCAUUUCUCUAUGAAAUAUUUGCUACUAGACUGUUCAUUUCUCUCUGACAUGUUUGUUGAAUGAAUAAAUAAUUUGAAACU | 4.26
GAGCGUUGUCAAUACCACUUAUAAAGCCAAGAAUUGCCAUGAUUUAAGACUAAGAUCUGUCUUUUUGGUGACUAACACUUCAGUUCUUUCAACUCCUAUUAAUACCCAUA | 0.567
GUGUCCUCAGCUAACAAAGGCAGGACUCCAGCUGGACUUCUGCAGCUUCCUUCCGAGUCUCCCUAGCCACCCGCACUACUGGACUGUGGAAGGAAGCGUCUACAGAGAAC | 0.227
UACUUGUUUAACACAAGUUUAUACCUGGUGUCAAUAAAACAAAUAUGUAUUUCUUGUCUACUAAGGAUUGCCAAGCUUUGUUUUGAAUUUCUGUAUUGGUCUCUAGGUGU | 0.422
CCCUGGCUACUGGGUCAAUAAUCUUUCAGGCCAUGAAUCUGGGAGGAGAGUGGUCUGUAAGCUCCAUCAGCCCUGUCCUGAGACAGCAGGGGGGAAGGACACUGGAGACU | 0.514

Study 4
Target: Phosphate system positive regulatory protein PHO4, full length, GST-tagged (PHO4, Saccharomyces cerevisiae, UniProt P07270, residues 1-312)
Method: competition protein-binding microarray
Molecule type: double-stranded DNA, one strand shown
Medium: in vitro
Tested at: 2 µM
Setting: whole 60-bp probe, lowest competitor level
With: Cbf1 competitor, 0.05 µM
Direction: higher = stronger binding
Constant ends, left off below: … GTCTTGATTCGCTTGACGCTGCTG
Residues (chain): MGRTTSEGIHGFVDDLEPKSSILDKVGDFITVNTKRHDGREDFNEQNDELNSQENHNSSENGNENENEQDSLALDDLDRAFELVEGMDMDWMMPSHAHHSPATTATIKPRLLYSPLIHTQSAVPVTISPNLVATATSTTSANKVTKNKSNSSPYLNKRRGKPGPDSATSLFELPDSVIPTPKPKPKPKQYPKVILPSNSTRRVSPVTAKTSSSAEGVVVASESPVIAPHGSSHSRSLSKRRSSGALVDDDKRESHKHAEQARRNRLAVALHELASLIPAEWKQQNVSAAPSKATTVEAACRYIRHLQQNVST
Sequence | fluorescence intensity [a.u.]
CTCCACTTACTTGTAATACTTTATTATTTTTCACTT | 4400
TTCGATGATGCTTGTCACGTGAACGAAGACTTCCAG | 12300
ATAATCTTCTCAGGACACGTAATCTTCTGATCCAGA | 4780
TTGGCTACGTCCCTACACGTGTTTTGCGGTCTCGCT | 17900
CGTCCTAGTGATTGTCACTTAACTTCCATGAGGAAG | 4070
GTCTTGTCTCATTGTCACCGCACTTTCCCCACTTCA | 4590
AAATTACTAAGTTTTCACGTGCTATACCCCGTATGA | 15000
CATAGATCGCACCAGCGCGTGGGTATCTTTCATTAT | 11600
CTTCTGTAAATTTGGACGGTGGGTGGACGCGCCCCG | 4290
ATTGTTGATGCTCTTGGCATGACAGAGGCGACGCCG | 4090
GTCTTGTCTCATTGGACCGTGGGTGTCCCCACTTCA | 8220
TTCAGGGTTGTTCATCACAGCAATAAAAGTATCAAC | 3430
TAGTGTGTAATGTAAAGCGTGCGATTCTTGATCTGG | 8470
CAAATGTTGCCTTTGCACGTGAAGGTGCATTTGTAT | 13900
TTTCATTCAGACCAACACGTGGTGAATTCACATAGT | 17100
ATTGTTAAAGTAATCCACGTGTAGTTGATTATTGAT | 20500
CGTCCTAGCGATTGAGAAGTGGGTGCCATGAGGAAG | 5910
TGGGTTTCTGTGAACACCGTGCCAGACACCATTGAC | 7880
AAATTACTAAGTTGTCACATTACTTACCCCGTATGA | 4170

Repeated from above (study 4):
Sequence | fluorescence intensity [a.u.]
CTTCTGTAAATTTGGACGGTGGGTGGACGCGCCCCG | 4290
ATTGTTGATGCTCTTGGCATGACAGAGGCGACGCCG | 4090
GTCTTGTCTCATTGGACCGTGGGTGTCCCCACTTCA | 8220
TTCAGGGTTGTTCATCACAGCAATAAAAGTATCAAC | 3430
TAGTGTGTAATGTAAAGCGTGCGATTCTTGATCTGG | 8470
CAAATGTTGCCTTTGCACGTGAAGGTGCATTTGTAT | 13900
TTTCATTCAGACCAACACGTGGTGAATTCACATAGT | 17100
ATTGTTAAAGTAATCCACGTGTAGTTGATTATTGAT | 20500
CGTCCTAGCGATTGAGAAGTGGGTGCCATGAGGAAG | 5910
TGGGTTTCTGTGAACACCGTGCCAGACACCATTGAC | 7880
